Measurements pooled from the literature.
± gives the spread as reported.

Cc1ccc(NC(=O)c2ccc(CN3CCN(C)CC3)cc2)cc1Nc1nccc(-c2cncc(-c3oncc3C)c2)n1 has a half-life of 32.7 h (older healthy human adults, plasma; oral, 325 mg single dose, fed, mean).
For O=CC[C@@H](O)[C@H](O)[C@H](O)CO, the half-life was 5.2 ± 1.6 h (HPLC-fluorescence; human patients, plasma; oral, 60 mg/kg/day, cycle 1).
COC(=O)c1ccc2c(c1)NC(=O)/C2=C(\Nc1ccc(N(C)C(=O)CN2CCN(C)CC2)cc1)c1ccccc1 gave a half-life of 41.1 h (human, hepatic impairment Child-Pugh A, plasma; oral, 100 mg single dose, geometric mean).
CNC(=O)c1c(C)oc2cc(Oc3ncnc4cc(OC)c(OC)cc34)ccc12 gave a half-life of 32.1 h (human, plasma; oral, 5 mg, fed, high-fat meal).
With CS(=O)(=O)n1cc2c(n1)CN([C@H]1CO[C@H](c3cc(F)ccc3F)[C@@H](N)C1)C2 the half-life was 49.5 h (healthy male human, plasma; oral, 25 mg single, fasted, geometric mean).
For CNC(=O)c1ccccc1Sc1ccc2c(/C=C/c3ccccn3)n[nH]c2c1, the half-life was 2.8 h (human patients, plasma; oral, steady state, without chemotherapy).
Cc1ccsc1C(=O)Nc1cc(CN2CCN(C(=O)CO)CC2)ccc1/C=C/c1n[nH]c2ccccc12 has a half-life of 13 ± 4.18 h (human patients, plasma; oral, 50 mg/day, day 28).
CO[C@H]1C[C@@H]2CC[C@@H](C)[C@@](O)(O2)C(=O)C(=O)N2CCCC[C@H]2C(=O)O[C@H]([C@H](C)C[C@@H]2CC[C@@H](OCCO)[C@H](OC)C2)CC(=O)[C@H](C)/C=C(\C)[C@@H](O)[C@@H](OC)C(=O)[C@H](C)C[C@H](C)/C=C/C=C/C=C/1C gave a half-life of 17.2 h (human, plasma; oral, 30 mg, with: sunitinib 50 mg daily).
The half-life of CO[C@H]1C[C@@H]2CC[C@@H](C)[C@@](O)(O2)C(=O)C(=O)N2CCCC[C@H]2C(=O)O[C@H]([C@H](C)C[C@@H]2CC[C@@H](O)[C@H](OC)C2)CC(=O)[C@H](C)/C=C(\C)[C@@H](O)[C@@H](OC)C(=O)[C@H](C)C[C@H](C)/C=C/C=C/C=C/1C is reported as 30 h (human, whole blood; oral, 30 mg, without grapefruit juice).
CC(C)(Sc1ccncc1-c1ccc(C#N)c2ccccc12)C(=O)O has a half-life of 12.5 h (human; oral, 2.5 mg, with: febuxostat 80 mg).
The half-life of CC[C@@H]1C(=O)N(C)c2cnc(Nc3ccc(C(=O)N[C@H]4CC[C@H](N5CCN(CC6CC6)CC5)CC4)cc3OC)nc2N1C(C)C is reported as 129 h (human, plasma; intravenous infusion, 300 mg over 2 h, first infusion, geometric mean).
C[C@@H]1CCC[C@H](n2cnc(-c3cc(Cl)ccc3-n3cc(Cl)nn3)cc2=O)c2cc(ccn2)-c2c(cnn2C(F)F)NC1=O has a half-life of 13.5 h (human; 500 mg once daily, day 14).
With C[C@H](N)C(=O)N1C[C@H](CCCB(O)O)[C@](N)(C(=O)O)C1 the half-life was 5.7 ± 1.1 h (human, plasma; oral, 50 mg twice daily, cycle 1 day 15).
The half-life of O=c1[nH]c(=O)c(Cc2cccc(C(F)(F)F)c2)c([C@H]2CC[C@H](c3ccccc3)CC2)[nH]1 is reported as 18.8 h (human, male, plasma; oral, 150 mg 14C solution, geometric mean).
C[C@@H](c1nc(-c2ccc(C#N)cc2)cs1)[C@](O)(Cn1cncn1)c1cc(F)ccc1F has a half-life of 430 h (human, both sexes, plasma; oral, 200 mg single dose, with: ketoconazole 200 mg BID).
CC#CC(=O)NCCCC(=O)c1nc(-c2ccc(C(=O)Nc3ccccn3)cc2)c2c(N)nccn12 has a half-life of 11.9 ± 4.1 h (human, severe hepatic impairment, plasma; oral, 50 mg acalabrutinib, single, arithmetic mean).
For CN[C@@H]1COc2c(S(=O)(=O)NC(=O)Nc3c4c(cc5c3CCC5)CCC4)cnn2C1, the half-life was 4.2 h (human; oral, 600 mg, high-fat meal, mean).
CCCCC1(CCCC)CN(c2ccccc2)c2cc(SC)c(OCC(=O)N[C@@H](C(=O)NCC(=O)O)c3ccccc3)cc2S(=O)(=O)C1 has a half-life of 4.18 h (LC-MS/MS; human, plasma; oral, 20 mg, single dose, before breakfast).
